# Assay results from different studies.
# A part holds a random share of what one study measured. “And” joins repeats or separate records; there may be more than shown.

# Sample 1 — effect on: enzyme activity; mode: inhibitor; concentration: 0.5 µM; relative to: control
# Target: G protein-coupled receptor kinase 6 (GRK6, Homo sapiens, UniProt P43250)
# UniProt P43250, sequence (whole entry, looked up): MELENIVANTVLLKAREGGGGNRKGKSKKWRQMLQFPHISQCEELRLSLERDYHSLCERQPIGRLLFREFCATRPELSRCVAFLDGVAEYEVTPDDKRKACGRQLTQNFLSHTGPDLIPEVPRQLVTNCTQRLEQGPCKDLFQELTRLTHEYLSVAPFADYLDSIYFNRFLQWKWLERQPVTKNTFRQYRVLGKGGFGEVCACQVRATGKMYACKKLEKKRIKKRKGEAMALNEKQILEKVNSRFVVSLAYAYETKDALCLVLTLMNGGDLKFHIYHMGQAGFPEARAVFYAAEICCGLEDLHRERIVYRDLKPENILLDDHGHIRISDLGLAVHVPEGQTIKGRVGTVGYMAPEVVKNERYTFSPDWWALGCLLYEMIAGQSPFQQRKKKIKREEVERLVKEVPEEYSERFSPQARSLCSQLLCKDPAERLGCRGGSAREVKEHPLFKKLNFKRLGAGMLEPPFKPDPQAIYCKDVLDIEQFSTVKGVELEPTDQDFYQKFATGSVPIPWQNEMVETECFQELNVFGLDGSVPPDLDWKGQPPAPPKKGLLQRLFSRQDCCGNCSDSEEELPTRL
Structure (SMILES),remaining activity
N#Cc1c(NC(=O)c2cccc3ccccc23)sc2c1CCCC2,108%
CN([C@@H](Cc1ccc(OS(=O)(=O)c2cccc3cnccc23)cc1)C(=O)N1CCN(c2ccccc2)CC1)S(=O)(=O)c1cccc2cnccc12,102%
Nc1cccc(-c2cc3c(Oc4cccc(O)c4)ncnc3[nH]2)c1,98%
O=C1C(Cl)=C(N2C(=O)CCC2=O)C(=O)c2ccccc21,98.5%
COc1cc2c(cc1OC)-c1[nH]nc(Nc3cccc(F)c3)c1C2,89.4%
COc1cc2ncnc(Nc3cccc(Cl)c3)c2cc1OC,96.8%
CN(C)C[C@H]1CCn2c(c(C3=C(c4cn(C)c5ccccc45)C(=O)NC3=O)c3ccccc32)C1,66.4%

# Sample 2 — technique: protein-binding microarray; form: double-stranded DNA, one strand shown; sample: in vitro; concentration: 2540 nM top; setting: 60-bp whole probe; together with: salmon DNA 0.4 mg/ml; relative to: random background probes; reading: higher = stronger binding; constant ends, left off below: GCCTAGCAC … GTCTTGATTCGCTTGACGCTGCTG
# Target: Interferon regulatory factor 3, full length, phosphomimetic (IRF3, Homo sapiens, UniProt Q14653, residues 1-427, S386D/S396D/S398D/S402D/T404D/S405D)
# Residues (chain): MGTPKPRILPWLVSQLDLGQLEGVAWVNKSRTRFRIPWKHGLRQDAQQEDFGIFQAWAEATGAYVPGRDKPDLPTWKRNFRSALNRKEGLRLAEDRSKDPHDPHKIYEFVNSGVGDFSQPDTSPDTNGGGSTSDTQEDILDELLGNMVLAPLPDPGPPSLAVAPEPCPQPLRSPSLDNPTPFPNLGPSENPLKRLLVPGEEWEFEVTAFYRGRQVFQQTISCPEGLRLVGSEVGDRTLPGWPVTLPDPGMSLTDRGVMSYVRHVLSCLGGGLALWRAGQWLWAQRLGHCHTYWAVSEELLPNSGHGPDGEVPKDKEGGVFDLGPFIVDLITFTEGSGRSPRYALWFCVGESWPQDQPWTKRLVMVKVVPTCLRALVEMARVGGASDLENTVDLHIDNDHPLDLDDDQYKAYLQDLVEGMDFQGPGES
Strand,fitted relative affinity [z-score]
GATGATCTCAGTTTCGAGACGTGCTAG,2.25
GAACCTTGGCCTCTAGGTTTGTGCTAG,-0.298
TTAGGAGTGGGACTGGGTTAGTGCTAG,-0.855
GGGAGTGTCAATAATGACCACGTGCTA,-0.052
TTAGGTCTCCTTCTCATTTAGTGCTAG,4.19
TCAATTTTTTTTATTTAACTGTGCTAG,0.462
TCATATATGACAATGATACTGTGCTAG,0.492
TTAGGTATCGGTCTCGATTAGTGCTAG,4.71

# Sample 3 — technique: RNA Bind-n-Seq; form: RNA; sample: in vitro; concentration: 1 µM; setting: whole 134-nt RNA, ends assumed; together with: 150 mM KCl; relative to: input library; reading: higher = stronger binding
# Target: Ras GTPase-activating protein-binding protein 1, RRM domain (G3BP1, Homo sapiens, UniProt Q13283)
# UniProt Q13283, sequence (whole entry, looked up): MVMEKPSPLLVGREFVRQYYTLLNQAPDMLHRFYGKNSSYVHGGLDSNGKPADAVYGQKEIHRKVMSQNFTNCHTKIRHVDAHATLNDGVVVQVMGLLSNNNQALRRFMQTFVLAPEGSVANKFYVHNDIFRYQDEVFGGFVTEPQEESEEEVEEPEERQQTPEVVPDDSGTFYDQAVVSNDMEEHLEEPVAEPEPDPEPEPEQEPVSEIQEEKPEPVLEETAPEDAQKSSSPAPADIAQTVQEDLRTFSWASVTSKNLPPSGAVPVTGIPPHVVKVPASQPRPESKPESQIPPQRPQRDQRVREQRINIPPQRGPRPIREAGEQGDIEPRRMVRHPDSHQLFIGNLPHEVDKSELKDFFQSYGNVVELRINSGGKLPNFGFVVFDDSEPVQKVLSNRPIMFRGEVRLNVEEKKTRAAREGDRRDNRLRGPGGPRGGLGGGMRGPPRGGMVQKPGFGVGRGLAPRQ
# Constant ends, left off below: GGGAGUUCUACAGUCCGACGAUC … UGGAAUUCUCGGGUGUCAAGG
Strand,log2 enrichment
GUCCUGUGCUACACAUCGUAUGUACCGAAUCAAACCCCCAAAUUUUUAAAUUUUUAAAAAAGUAUUAUGUUACGCCGUUCGGAUCUGCAC,-0.604
UCCUGUGCUACACAUCGUAUGUACCGAAUCGGGGAAAGGGGUUUGGGGUUUUUUUGGGGAAAGUAUUAUGUUACGCCGUUCGGAUCUGCA,1.12
CCUGUGCUACACAUCGUAUGUACCGAAUCGGGGUUUUUUUGGGGUGGGGUUUUUUUGGGGAAAGUAUUAUGUUACGCCGUUCGGAUCUGC,0.353
GCAGGAAGUAAAAACAAAUGGAAAUGCUUCGGAUAGUGGCAGGGGUGGGGGUUGCUAAGGAAAGGGUGGGAUGGGAGUGGGUUAAGAGUU,0.238
GUCCUGUGCUACACAUCGUAUGUACCGAAUCGGGUGGGAAAAAAAGGGAAAAAAAGGGAAAGUAUUAUGUUACGCCGUUCGGAUCUGCAC,0.497
UGUGAGCUGACUUUUUGGAUCAACUUUACUUUUCCCUUCUUUUUAGGCAAUUGAAGAUGAAGGUGGUAAUCCUGACGAAAUUGAAAUUAC,-0.0721
CACAGACAACACGCACCCACACAGACACAUAGGGAAGGGGUUGGGAUGGGGACAGGGUGCACAGCAGGGCGGGGUAGGACCCCAGCCCCU,0.273
CUCAAGUCCUGUGCUACACAUCGUAUGUACCGAAUCGGAAGGGGAAGGGGAAGGAAAGUAUUAUGUUACGCCGUUCGGAUCUGCACUUCC,-0.34

# Single results of other studies — cell line: normal organoid sample E; technique: CellTiter-Glo; host: human; sample: normal-adjacent epithelium; concentration: 1 µM; relative to: DMSO
SMILES,viability
CCNC(=O)c1cc2c(N3CCOC[C@@H]3C)ccnc2[nH]1,111% and 116%
CC(=O)C1=C(C)N(c2cccc(C(F)(F)F)c2)C(=O)N[C@H]1c1ccc(C#N)nc1,123% and 103%

# Repeated from above (sample 1):
Structure (SMILES),remaining activity
Nc1cccc(-c2cc3c(Oc4cccc(O)c4)ncnc3[nH]2)c1,98%
